Assay results collected from several papers.
Lines come from different studies, so protocols differ.

Molecule | target or system | test | system | setting | how to read | endpoint | value
C(#Cc1nc2ncccc2nc1OCCN1CCCC1)c1ccccc1 | Replicase polyprotein 1ab, main protease (rep, Severe acute respiratory syndrome coronavirus 2, UniProt P0DTD1) | viral replication, mKate2 reporter | SARS-CoV-2 | 20 µM |  | inhibition | -1.43%
Nc1ncnc2c([C@@H]3N[C@H](CO)[C@@H](O)[C@H]3O)c[nH]c12 | Zaire ebolavirus | antibody staining | human macrophages | 25 µM |  | antigen-positive cells | 37.1%
FPRGQGVPI |  | AIM | peptide, CD8+ T cells from PBMC, human donors | HLA-B*07:02 restricted, unit not given | relative to: positive over tested donors | frequency of responding donors | 33
Cn1cnc(Cn2c(=O)[nH]/c(=N\c3cc4cn(C)nc4cc3Cl)n(Cc3cc(F)c(F)cc3F)c2=O)n1 |  |  | human, mild renal impairment, plasma | oral, 375 mg single dose |  | AUC(0-last) | 1400 µg·h/mL
GMEVTPSGTWLTYTG | human CD4 T cells | AIM | peptide |  |  | responding donors | 8%
CC[C@H](C)[C@H](NC(=O)[C@H](CC(C)C)NC(=O)[C@H](Cc1c[nH]c2ccccc12)NC(=O)[C@H](CCC(N)=O)NC(=O)[C@@H](NC(=O)[C@H](Cc1ccccc1)NC(=O)[C@H](C)NC(=O)[C@H](CCCCNC(=O)COCCOCCNC(=O)COCCOCCNC(=O)CC[C@H](NC(=O)CCCCCCCCCCCCCCCCCCC(=O)O)C(=O)O)NC(=O)[C@H](CCC(N)=O)NC(=O)[C@H](C)NC(=O)[C@@H](NC(=O)[C@H](CCCCN)NC(=O)[C@H](CC(=O)O)NC(=O)[C@H](CC(C)C)NC(=O)C(C)(C)NC(=O)[C@@H](NC(=O)[C@H](CO)NC(=O)[C@H](Cc1ccc(O)cc1)NC(=O)[C@H](CC(=O)O)NC(=O)[C@H](CO)NC(=O)[C@@H](NC(=O)[C@H](Cc1ccccc1)NC(=O)[C@@H](NC(=O)CNC(=O)[C@H](CCC(=O)O)NC(=O)C(C)(C)NC(=O)[C@@H](N)Cc1ccc(O)cc1)[C@@H](C)O)[C@@H](C)O)[C@@H](C)CC)[C@@H](C)CC)C(C)C)C(=O)N[C@@H](C)C(=O)NCC(=O)NCC(=O)N1CCC[C@H]1C(=O)N[C@@H](CO)C(=O)N[C@@H](CO)C(=O)NCC(=O)N[C@@H](C)C(=O)N1CCC[C@H]1C(=O)N1CCC[C@H]1C(=O)N1CCC[C@H]1C(=O)N[C@@H](CO)C(N)=O |  |  | patients with type 2 diabetes | 0.5 mg, day 1, proof of concept, median |  | Tmax | 48 h

A few entries again:
Molecule | target or system | test | system | setting | how to read | endpoint | value
Nc1ncnc2c([C@@H]3N[C@H](CO)[C@@H](O)[C@H]3O)c[nH]c12 | Zaire ebolavirus | antibody staining | human macrophages | 25 µM |  | antigen-positive cells | 37.1%
